Measured values of several laboratories.
Each line is one published result; not all experiments were run side by side. Values joined by “and” are separate records of one study, mostly repeats; a detail may differ. ± gives the spread as reported.
Neutral cholesterol ester hydrolase 1: Neutral cholesterol ester hydrolase 1 (Mus musculus, UniProt Q8BLF1)
PIP4K2A: Phosphatidylinositol 5-phosphate 4-kinase type-2 alpha (PIP4K2A, Homo sapiens, UniProt P48426)
Lypla1: Acyl-protein thioesterase 1 (Lypla1, Mus musculus, UniProt P97823)
UniProt P97823, sequence (whole entry, looked up): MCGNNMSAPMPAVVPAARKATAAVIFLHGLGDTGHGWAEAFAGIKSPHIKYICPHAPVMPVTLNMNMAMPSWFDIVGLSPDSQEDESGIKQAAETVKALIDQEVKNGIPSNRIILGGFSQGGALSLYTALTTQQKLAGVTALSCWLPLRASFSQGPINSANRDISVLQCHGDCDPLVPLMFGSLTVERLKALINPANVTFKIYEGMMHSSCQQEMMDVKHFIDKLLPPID
DRD4: D(4) dopamine receptor (DRD4, Homo sapiens, UniProt P21917)
UniProt P21917, sequence (whole entry, looked up): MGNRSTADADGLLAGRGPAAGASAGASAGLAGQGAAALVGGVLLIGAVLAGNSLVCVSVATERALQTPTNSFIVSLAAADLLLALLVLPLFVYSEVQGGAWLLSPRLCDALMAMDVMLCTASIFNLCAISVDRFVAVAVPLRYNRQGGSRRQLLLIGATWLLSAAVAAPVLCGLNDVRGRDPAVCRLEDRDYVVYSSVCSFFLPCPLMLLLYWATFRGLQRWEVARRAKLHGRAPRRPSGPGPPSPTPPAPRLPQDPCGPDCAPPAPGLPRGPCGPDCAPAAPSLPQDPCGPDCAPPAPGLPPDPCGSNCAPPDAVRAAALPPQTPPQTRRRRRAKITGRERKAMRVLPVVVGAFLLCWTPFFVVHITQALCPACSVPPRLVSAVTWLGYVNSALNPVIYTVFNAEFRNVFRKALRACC
HDAC3: Histone deacetylase 3 (HDAC3, Homo sapiens, UniProt O15379)
UniProt O15379, sequence (whole entry, looked up): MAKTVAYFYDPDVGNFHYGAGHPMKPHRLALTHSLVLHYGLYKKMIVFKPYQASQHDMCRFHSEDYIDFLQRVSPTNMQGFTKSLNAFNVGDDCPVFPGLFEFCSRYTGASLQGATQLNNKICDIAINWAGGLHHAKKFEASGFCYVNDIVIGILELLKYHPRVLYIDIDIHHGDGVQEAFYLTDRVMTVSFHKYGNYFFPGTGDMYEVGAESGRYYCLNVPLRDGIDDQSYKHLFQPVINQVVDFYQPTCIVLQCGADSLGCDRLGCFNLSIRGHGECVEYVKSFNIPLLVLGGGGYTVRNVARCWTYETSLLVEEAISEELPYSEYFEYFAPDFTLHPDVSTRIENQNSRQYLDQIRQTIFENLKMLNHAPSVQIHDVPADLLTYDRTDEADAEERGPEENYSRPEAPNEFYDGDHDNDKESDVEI
PARP1: Poly [ADP-ribose] polymerase 1 (PARP1, Homo sapiens, UniProt P09874)
UniProt P09874, sequence (whole entry, looked up): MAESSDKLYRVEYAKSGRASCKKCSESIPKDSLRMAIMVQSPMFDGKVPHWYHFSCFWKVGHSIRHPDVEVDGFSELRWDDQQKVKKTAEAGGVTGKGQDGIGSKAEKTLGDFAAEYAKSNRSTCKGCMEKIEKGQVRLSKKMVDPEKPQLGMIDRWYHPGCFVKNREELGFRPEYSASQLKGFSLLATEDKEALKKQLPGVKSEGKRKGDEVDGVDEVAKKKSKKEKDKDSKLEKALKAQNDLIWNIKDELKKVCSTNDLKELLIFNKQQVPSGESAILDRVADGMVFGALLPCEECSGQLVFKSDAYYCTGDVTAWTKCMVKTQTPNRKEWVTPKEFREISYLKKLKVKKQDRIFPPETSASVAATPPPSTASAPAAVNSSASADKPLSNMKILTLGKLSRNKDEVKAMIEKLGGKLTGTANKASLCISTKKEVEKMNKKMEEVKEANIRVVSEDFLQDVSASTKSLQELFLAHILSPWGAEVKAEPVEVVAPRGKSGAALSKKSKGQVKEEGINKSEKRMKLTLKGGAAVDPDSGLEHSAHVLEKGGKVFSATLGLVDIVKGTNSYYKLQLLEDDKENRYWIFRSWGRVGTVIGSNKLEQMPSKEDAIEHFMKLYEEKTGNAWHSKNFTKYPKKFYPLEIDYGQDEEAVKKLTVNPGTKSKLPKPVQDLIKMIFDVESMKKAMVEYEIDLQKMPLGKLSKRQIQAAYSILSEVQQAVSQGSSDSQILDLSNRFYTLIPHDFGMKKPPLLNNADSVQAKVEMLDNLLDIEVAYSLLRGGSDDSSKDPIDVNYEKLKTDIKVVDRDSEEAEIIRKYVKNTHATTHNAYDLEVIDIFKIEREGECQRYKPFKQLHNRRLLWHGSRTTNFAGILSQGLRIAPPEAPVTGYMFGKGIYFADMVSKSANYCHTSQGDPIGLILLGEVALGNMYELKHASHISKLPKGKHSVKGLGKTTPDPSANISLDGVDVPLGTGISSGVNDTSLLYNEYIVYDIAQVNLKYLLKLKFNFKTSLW
RPS6KA4: Ribosomal protein S6 kinase alpha-4 (RPS6KA4, Homo sapiens, UniProt O75676)
UniProt O75676, sequence (whole entry, looked up): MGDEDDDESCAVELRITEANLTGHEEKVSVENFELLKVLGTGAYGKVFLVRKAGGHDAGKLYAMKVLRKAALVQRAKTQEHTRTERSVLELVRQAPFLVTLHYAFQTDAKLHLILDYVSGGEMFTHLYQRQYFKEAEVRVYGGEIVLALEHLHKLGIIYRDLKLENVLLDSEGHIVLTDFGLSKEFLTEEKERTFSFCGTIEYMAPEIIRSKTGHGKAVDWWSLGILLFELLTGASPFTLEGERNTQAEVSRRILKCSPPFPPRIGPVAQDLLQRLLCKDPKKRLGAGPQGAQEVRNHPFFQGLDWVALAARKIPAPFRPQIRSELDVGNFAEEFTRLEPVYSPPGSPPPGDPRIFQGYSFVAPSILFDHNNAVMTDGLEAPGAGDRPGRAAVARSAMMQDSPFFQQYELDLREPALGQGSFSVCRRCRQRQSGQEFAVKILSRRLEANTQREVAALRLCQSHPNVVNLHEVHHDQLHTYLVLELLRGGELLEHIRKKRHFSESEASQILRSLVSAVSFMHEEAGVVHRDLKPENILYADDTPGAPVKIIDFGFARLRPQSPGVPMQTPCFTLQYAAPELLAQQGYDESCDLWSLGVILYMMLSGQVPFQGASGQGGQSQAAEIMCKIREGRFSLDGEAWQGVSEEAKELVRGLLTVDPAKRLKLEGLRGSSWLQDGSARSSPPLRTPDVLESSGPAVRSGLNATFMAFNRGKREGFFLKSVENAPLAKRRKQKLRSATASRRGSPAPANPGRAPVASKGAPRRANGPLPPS
PLAT: Tissue-type plasminogen activator (PLAT, Homo sapiens, UniProt P00750)
UniProt P00750, sequence (whole entry, looked up): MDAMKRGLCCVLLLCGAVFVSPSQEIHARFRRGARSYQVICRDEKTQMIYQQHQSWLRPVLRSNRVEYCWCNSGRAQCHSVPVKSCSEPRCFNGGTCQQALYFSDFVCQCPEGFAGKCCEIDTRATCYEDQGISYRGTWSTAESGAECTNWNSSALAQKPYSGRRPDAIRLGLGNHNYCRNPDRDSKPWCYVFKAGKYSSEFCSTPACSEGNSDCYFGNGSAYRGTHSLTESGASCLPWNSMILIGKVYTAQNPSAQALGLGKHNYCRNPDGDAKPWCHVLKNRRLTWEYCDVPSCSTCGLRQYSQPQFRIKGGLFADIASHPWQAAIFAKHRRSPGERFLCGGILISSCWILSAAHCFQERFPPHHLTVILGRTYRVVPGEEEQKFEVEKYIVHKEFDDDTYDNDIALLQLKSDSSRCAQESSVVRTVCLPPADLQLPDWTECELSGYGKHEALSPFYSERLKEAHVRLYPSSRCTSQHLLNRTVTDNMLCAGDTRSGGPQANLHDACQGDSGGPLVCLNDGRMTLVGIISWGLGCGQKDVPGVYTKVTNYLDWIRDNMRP
Breakpoint cluster region protein GAP domain: Breakpoint cluster region protein, GAP domain (Homo sapiens, UniProt P11274)
UniProt P11274, sequence (whole entry, looked up): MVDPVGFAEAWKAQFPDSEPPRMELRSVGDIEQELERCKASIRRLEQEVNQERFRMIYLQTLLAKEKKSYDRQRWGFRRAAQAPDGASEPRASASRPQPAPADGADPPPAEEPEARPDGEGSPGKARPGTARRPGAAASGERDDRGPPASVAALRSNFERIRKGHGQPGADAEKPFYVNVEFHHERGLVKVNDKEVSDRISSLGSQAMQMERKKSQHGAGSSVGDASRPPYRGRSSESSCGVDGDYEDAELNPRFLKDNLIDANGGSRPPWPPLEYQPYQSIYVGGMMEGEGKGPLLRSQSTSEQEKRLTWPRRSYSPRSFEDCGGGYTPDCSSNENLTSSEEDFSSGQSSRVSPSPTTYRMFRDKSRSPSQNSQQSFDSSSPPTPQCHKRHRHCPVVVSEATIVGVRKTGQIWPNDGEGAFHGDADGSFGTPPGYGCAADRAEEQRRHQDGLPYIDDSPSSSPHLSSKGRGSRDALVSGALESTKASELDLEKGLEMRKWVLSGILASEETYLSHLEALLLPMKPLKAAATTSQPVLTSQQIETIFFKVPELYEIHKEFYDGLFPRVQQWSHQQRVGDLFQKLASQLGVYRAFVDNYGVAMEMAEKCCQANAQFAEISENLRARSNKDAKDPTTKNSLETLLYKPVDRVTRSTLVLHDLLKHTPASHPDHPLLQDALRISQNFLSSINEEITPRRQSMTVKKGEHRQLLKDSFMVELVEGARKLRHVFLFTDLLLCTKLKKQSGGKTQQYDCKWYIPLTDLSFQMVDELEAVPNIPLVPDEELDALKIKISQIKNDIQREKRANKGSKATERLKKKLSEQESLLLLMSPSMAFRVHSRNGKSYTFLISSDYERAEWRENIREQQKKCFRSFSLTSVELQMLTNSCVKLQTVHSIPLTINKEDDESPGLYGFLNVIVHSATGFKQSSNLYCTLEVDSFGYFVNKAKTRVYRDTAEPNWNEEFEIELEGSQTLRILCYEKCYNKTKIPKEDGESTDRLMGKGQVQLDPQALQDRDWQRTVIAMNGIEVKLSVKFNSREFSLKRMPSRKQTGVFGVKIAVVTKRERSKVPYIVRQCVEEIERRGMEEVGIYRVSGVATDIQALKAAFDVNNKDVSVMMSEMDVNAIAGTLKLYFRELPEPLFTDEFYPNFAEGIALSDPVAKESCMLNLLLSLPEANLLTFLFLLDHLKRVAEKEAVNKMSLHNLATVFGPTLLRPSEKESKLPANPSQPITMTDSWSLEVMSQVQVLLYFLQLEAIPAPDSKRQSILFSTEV
sn-1-specific diacylglycerol lipase ABHD11: sn-1-specific diacylglycerol lipase ABHD11 (Mus musculus, UniProt Q8K4F5)
UniProt Q8K4F5, sequence (whole entry, looked up): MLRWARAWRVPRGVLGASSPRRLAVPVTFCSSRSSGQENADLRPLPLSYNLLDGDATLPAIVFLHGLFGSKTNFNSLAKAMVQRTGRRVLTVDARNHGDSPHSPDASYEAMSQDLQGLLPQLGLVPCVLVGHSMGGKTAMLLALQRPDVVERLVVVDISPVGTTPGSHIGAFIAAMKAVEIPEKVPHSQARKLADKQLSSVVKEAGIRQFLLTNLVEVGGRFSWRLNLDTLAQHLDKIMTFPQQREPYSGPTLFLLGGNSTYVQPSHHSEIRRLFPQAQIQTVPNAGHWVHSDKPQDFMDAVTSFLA

SMILES | target | assay | system | setting | how to read | inhibition
CCCCCCCCCCCCCCCC(=O)N[C@@H](CCCCN)C(=O)N[C@@H](CCCCN)C(=O)N[C@@H](CO)C(=O)N[C@@H](CCCNC(=N)N)C(=O)N[C@@H](C)C(=O)N[C@@H](CC(C)C)C(=O)N[C@@H](Cc1ccccc1)C(N)=O | F2R (Homo sapiens, UniProt P25116) | platelet aggregation, ex vivo LTA | human | 0.5 mg/kg, 2 h, added: SFLLRN 20 µM | relative to: baseline | 17%
CN(C)C/C=C/C(=O)Nc1ccc2nc(NCCCCCN(C)C)nc(NCCCCCCN(C)C)c2c1 | DNMT1 (Homo sapiens, UniProt P26358) | enzyme activity, inhibitor, radiometric |  | 10 µM |  | 3%
CCC(=O)N(C)c1ccc(Cl)c(Cl)c1 | GALR2 (Homo sapiens, UniProt O43603) | ligand displacement, radioligand |  | 10 µM |  | < 10%
CNC(=O)C[C@H](Cc1ccc(C#N)cc1)NC(=O)c1cc(-c2ccc(CN[C@H](C)c3ccc(C)cc3)o2)ccc1Cl | ADORA2B (Homo sapiens, UniProt P29275) | agonist response, antagonist | human cells | 10 µM, A2B antagonist |  | 8%
C=CCN(CC=C)C(=O)n1ccnn1 | Neutral cholesterol ester hydrolase 1 | probe labeling, inhibitor, gel-based competitive ABPP | mouse T-cell proteome | 1 µM, 30 min, 37 °C |  | < 50%
CS(=O)(=O)Nc1cccc(-c2csc3cnc(Nc4ccc(N5CCN(CCCCCOc6cccc7c6C(=O)N(C6CCC(=O)NC6=O)C7=O)CC5)cc4)nc23)c1 (stereo not drawn) | PIP4K2A | probe labelling, inhibitor, KiNativ chemoproteomics | MOLT-4 | 1 µM |  | -8.69%
NC(=O)[C@@H](O)C[C@H]1CCc2sc3ncnc(O[C@H]4CC[C@H](N5CCOCC5)CC4)c3c21 | Cyclin-dependent kinase 1, with cyclin E (CDK1, Homo sapiens, UniProt P06493) | enzyme activity, inhibitor |  | 10 µM |  | 28%
O=C(N1CCCC1)n1ccnn1 | Lypla1 |  |  | 1 µM |  | > 95%
c1ccc(OC[C@H]2CN(CCN3CCc4ccccc43)CCO2)nc1 | DRD4 | radioligand binding |  | concentration not given, added: [3H]N-methylspiperone |  | 72.4%
Cc1c(COc2cc(OCc3cccc(C#N)c3)c(CN3CCCC[C@H]3C(=O)O)cc2Cl)cccc1-c1cccc(OCCCCCCC(=O)NO)c1 | HDAC3 | enzyme activity, inhibitor |  | 1 µM |  | 96%
CC1CCN(C(=O)c2cccc(NC(=O)Nc3cc(Cl)cc(Cl)c3)c2)CC1 | Beta-lactam-inducible penicillin-binding protein (pbp, Staphylococcus aureus, UniProt P07944) | Bocillin-FL labelling, fluorescence polarization |  | 50 µM |  | no inhibition
O=C1c2sc(-c3ccc(N4CCC(CO)CC4)nc3F)nc2CCN1c1cccnc1 | BRS3 (Homo sapiens, UniProt P32247) | ligand displacement, radioligand |  | 1 µM |  | 8%
Cc1cc(C(=O)NCCNC(=O)c2cccc(COc3ccccc3C(N)=O)c2)n[nH]1 | PARP1 | enzyme activity, inhibitor |  | 50 nM |  | 17%
O=C1c2sc(-c3ccc(N4CCC(F)C4)nc3F)nc2CCN1c1cccnc1 (stereo not drawn) | ADRA1A (Homo sapiens, UniProt P35348) | ligand displacement, radioligand |  | 1 µM |  | -4%
Cc1cccc(O[C@H]2CCC[C@@H](C(C)CNCc3ccncc3)C2)c1 (relative stereo) | RPS6KA4 | enzyme activity, inhibitor |  | 10 µM |  | -8%
O=C(N1CCOCC1)n1ccnn1 | Platelet-activating factor acetylhydrolase 2, cytoplasmic (Mus musculus, UniProt Q8VDG7) | serine hydrolase activity, inhibitor, competitive gel-based ABPP | mouse T-cell proteome | 1 µM, 30 min, 37 °C |  | > 95%
O=C(Nc1ccc(C(F)F)cc1)[C@H](CC1CCCCC1)Nc1nn2c(=O)ccnc2s1 | PTPN6 (Homo sapiens, UniProt P29350) | enzyme activity, inhibitor |  | 10 µM |  | 10%
CC(=O)[C@]12NC(C)(C)C[C@@]1(C)C(=O)C1=C2c2c(c3c4n2C(C)(C)CC2=C4[C@@]4(CC(C)(C)N[C@@](C)(C4)C2=O)CC3(C)C)C(=O)C(C)(C)N1 (racemic) | SCN2A (Homo sapiens, UniProt Q99250) | sodium current | HEK293T | 40 µM |  | 12 ± 0.07%
C[Si](C)(C)C[C@H](CN)CC(=O)O | L-type calcium channel, rat | binding, radioligand binding |  | 250 µM, added: [3H]diltiazem |  | -2%
Cc1ccc(CNC(=O)[C@H](CCc2ccccc2)NC(=O)[C@H](CCc2ccccc2)NC(=O)Cc2cccc(Oc3ccccc3)c2)cc1 | PLAT | enzyme activity, inhibitor |  | 100 µM |  | 14%
Cn1c(CNc2ccccc2Cl)nc2ccccc21 | Breakpoint cluster region protein GAP domain | GAP activity |  | 10 µM, selectivity counter screen |  | 36%
COc1ccc(CN2CC(COc3nccs3)CC(F)(F)C2)cc1F (stereo not drawn) | DRD4 | ligand displacement, radioligand |  | 10 µM |  | 8%
C[C@@H]1CN(Cc2ccccc2)[C@H]2C[C@@H]1CC(=O)[C@@H]2C | Oprd1 (Rattus norvegicus, UniProt P33533) | ligand displacement, radioligand |  | 1 µM |  | 23%
Cc1c(COc2cc(OCc3cccc(C#N)c3)c(CNCCO)cc2Cl)cccc1-c1cccc(OCc2ccc(C(=O)NO)cc2)c1 | HDAC3 | enzyme activity, inhibitor |  | 1 µM |  | 39.4%
CCN(CC)C(=O)n1ccnn1 | sn-1-specific diacylglycerol lipase ABHD11 | serine hydrolase activity, inhibitor, competitive gel-based ABPP | mouse T-cell proteome | 1 µM, 30 min, 37 °C |  | < 50%
CC(C)Cn1c(SCC(=O)N2CCc3ccccc3C2)nc2cc(Cl)ccc2c1=O | HTR6 (Homo sapiens, UniProt P50406) | ligand displacement, radioligand |  | 10 µM |  | 2%

SMILES | target | assay | system | setting | how to read | inhibition
Cc1ccc(C(C2=C(O)CC(C)(C)CC2=O)C2=C(O)CC(C)(C)CC2=O)o1 | Breakpoint cluster region protein GAP domain | GAP activity |  | 10 µM, selectivity counter screen |  | -8.01%
Fc1cccc(OCC2CN(Cc3ncc4ccccn34)CCC2(F)F)c1 (stereo not drawn) | DRD4 | ligand displacement, radioligand |  | 10 µM |  | 42%
COc1ccc2nc(C)ccc2c1Nc1sn(C)c(=O)c1C#N | PARP1 | enzyme activity, inhibitor |  | 10 µM |  | 3%
O=C(n1ccnn1)n1c2ccccc2c2ccccc21 | Lypla1 |  |  | 1 µM |  | < 50%
CO[C@@H](C)c1c(NC(=O)Nc2cnc(-n3nccn3)c(C(F)(F)F)c2)cnc2sc(C)nc12 | CXCR2 (Homo sapiens, UniProt P25025) | ligand displacement, radioligand |  | 10 µM |  | 9.7%
O=C(CC1CC2CCC1C2)NCCNC(=O)Cn1c(=O)[nH]c(=O)c2ccccc21 (stereo not drawn) | PARP2 (Homo sapiens, UniProt Q9UGN5) | enzyme activity, inhibitor |  | 5 nM |  | 0%
CN(C(=O)n1ccnn1)c1ccccc1 | sn-1-specific diacylglycerol lipase ABHD11 | serine hydrolase activity, inhibitor, competitive gel-based ABPP | mouse T-cell proteome | 1 µM, 30 min, 37 °C |  | > 95%
Cc1c(OS(=O)(=O)Oc2ccccc2-c2ccccc2)cccc1C(=O)NO | HDAC8 (Homo sapiens, UniProt Q9BY41) | enzyme activity, inhibitor, fluorescence |  | 10 µM |  | 47%
Cc1c(COc2cc(OCc3cccc(C#N)c3)c(CN3CCCC[C@H]3C(=O)O)cc2Cl)cccc1-c1cccc(OCc2ccc(C(=O)NO)cc2)c1 | HDAC3 | enzyme activity, inhibitor |  | 1 µM |  | 44%
CC[C@H](C)[C@@H]1NC(=O)[C@H](Cc2ccccc2C(F)(F)F)NC(=O)CCSCc2cccc(n2)CSCCCNC(=O)[C@H](CCCCCC(=O)O)NC1=O | HDAC3 | enzyme activity, inhibitor, fluorogenic |  | 30 µM |  | 30%
CN1CCN(C(=O)n2ccnn2)CC1 | Neutral cholesterol ester hydrolase 1 | probe labeling, inhibitor, gel-based competitive ABPP | mouse T-cell proteome | 1 µM, 30 min, 37 °C |  | < 50%
Cc1nc2c(F)cc(-c3nc(Nc4ccc(CNC(=O)CCCCCCC(=O)NO)cc4)ncc3F)cc2n1C(C)C | PIP4K2A | enzyme activity, inhibitor |  | 1 µM |  | 0%
CN(Cc1ccc(/C=C/C(=O)NO)cc1)CC12CC3CC(CC(C3)C1)C2 | human EP4 receptor | agonist radioligand binding |  | 0.05 µM |  | 3%
C[C@H](NC(=O)[C@H](CC(=O)NCC(C)(C)C)NC(=O)CCc1ccccc1)C(=O)NCc1ccccc1Cl | PLAT | enzyme activity, inhibitor |  | 100 µM |  | 17%
COc1cc(-c2cn(C)c(=O)c3cnccc23)cc(OC)c1CN(C)C | TRIM24 (Homo sapiens, UniProt O15164) |  |  | 1 µM |  | -7.14%
Cn1sc(Nc2c(Cl)ccc3ncccc23)c(C#N)c1=O | NMNAT1 (Homo sapiens, UniProt Q9HAN9) | enzyme activity, inhibitor |  | 10 µM |  | 39%
Cc1c(COc2cc(OCc3cccc(C#N)c3)c(CNC(CO)CO)cc2Cl)cccc1-c1cccc(OCc2ccc(/C=C/C(=O)NO)cc2)c1 | HDAC3 | enzyme activity, inhibitor |  | 1 µM |  | 37.4%
C=CC(=O)Nc1cccc(-c2cnc3[nH]cc(C(=O)NC(C)(C)C)c3n2)c1 | RPS6KA4 | kinase activity |  | 0.1 µM |  | 5% and 8%
CCCCCCC#Cc1cncc(-c2nnc(SCc3ccc([N+](=O)[O-])o3)n2C)c1 | mraY (Staphylococcus aureus, UniProt Q2FZ93) | cell-free assay, inhibitor |  | 250 µM |  | 67%
COc1ccc2c(c1)-c1nc(N)sc1CC2 | Breakpoint cluster region protein GAP domain | GAP activity |  | 10 µM, selectivity counter screen |  | 44.2%
CC(=O)O[C@@]1(C)CN(Cc2ccccc2)[C@H]2C[C@@H]1CC(=O)[C@@H]2C | OPRK1 (Cavia porcellus, UniProt P41144) | binding, radioligand binding | guinea pig brain | 1 µM, added: [3H]U-69,593 |  | 0%
Cc1ccc(CN(C)C(=O)C(CCc2ccccc2)NC(=O)C(NC(=O)c2ccc(OCc3ccccc3)cc2)C(C)O)cc1 (stereo not drawn) | PLAT | enzyme activity, inhibitor |  | 100 µM |  | 14%
C[Si]1(C[C@H](CN)CC(=O)O)CCCC1 | ADRB1 (Homo sapiens, UniProt P08588) | cell-free assay, inhibitor |  | 70 µM |  | -13%
Cc1c(COc2cc(OCc3cccc(C#N)c3)c(CNC(C)(CO)CO)cc2Cl)cccc1-c1cccc(OCCCCCCC(=O)NO)c1 | HDAC3 | enzyme activity, inhibitor |  | 1 µM |  | 95.7%
O=C(CCCc1ccc2c(c1)OCCO2)NCCNC(=O)Cn1c(=O)[nH]c(=O)c2ccccc21 | PARP1 | enzyme activity, inhibitor |  | 0.5 µM |  | 15%
